Assay results of several laboratories.
Parts stem from different laboratories: compare values within a part only.

Study 1
Target: Ras GTPase-activating protein-binding protein 1, full length (G3BP1, Homo sapiens, UniProt Q13283)
Sequence of UniProt Q13283 (whole entry, looked up): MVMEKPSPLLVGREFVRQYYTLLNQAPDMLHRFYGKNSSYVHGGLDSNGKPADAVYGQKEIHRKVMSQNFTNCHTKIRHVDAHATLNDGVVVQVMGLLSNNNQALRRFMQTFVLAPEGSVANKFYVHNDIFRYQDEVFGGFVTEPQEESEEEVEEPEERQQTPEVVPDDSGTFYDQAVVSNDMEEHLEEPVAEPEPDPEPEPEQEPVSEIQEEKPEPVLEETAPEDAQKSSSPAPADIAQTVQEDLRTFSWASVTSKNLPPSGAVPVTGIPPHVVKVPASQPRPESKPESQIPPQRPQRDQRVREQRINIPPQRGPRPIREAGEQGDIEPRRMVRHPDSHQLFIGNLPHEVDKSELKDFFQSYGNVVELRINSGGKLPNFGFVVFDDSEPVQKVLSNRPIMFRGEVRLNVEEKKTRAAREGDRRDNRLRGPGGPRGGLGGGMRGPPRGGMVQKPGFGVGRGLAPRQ
Technique: RNA Bind-n-Seq
Form: RNA
Sample: in vitro
Concentration: 200 nM
Notes: whole 134-nt RNA, ends assumed
Added: 150 mM LiCl
Baseline: input library
Direction: higher = stronger binding
All molecules: 7-deaza-guanosine replaces G
| Sequence | log2 enrichment |
| --- | --- |
| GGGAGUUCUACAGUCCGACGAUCACCAUGCAGGUAGGCAUCUUUGGGAAGUGGGGCAAGGGGGGGAUAGGGAGGGGGGUAACACUUUGGGAACAGGUGGUCCCAGGUCGUUUCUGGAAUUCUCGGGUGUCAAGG | 0.016 |
| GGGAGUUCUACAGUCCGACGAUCCCUCAAGUCCUGUGCUACACAUCGUAUGUACCGAAUCGGGGCGGCGGGCGGGGAAAGUAUUAUGUUACGCCGUUCGGAUCUGCACUUCCAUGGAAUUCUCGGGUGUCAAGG | -0.264 |
| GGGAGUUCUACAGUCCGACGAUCCUGUGCUACACAUCGUAUGUACCGAAUCGGGGUUUUUUUGGGGAAAGGGGUUUUUUUGGGGAAAGUAUUAUGUUACGCCGUUCGGAUCUGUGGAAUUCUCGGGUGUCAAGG | -0.211 |
| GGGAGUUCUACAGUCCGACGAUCCUCAAGUCCUGUGCUACACAUCGUAUGUACCGAAUCGGGUUUGGGUGGGAGGGAAAGUAUUAUGUUACGCCGUUCGGAUCUGCACUUCCAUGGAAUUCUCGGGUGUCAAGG | -0.137 |
| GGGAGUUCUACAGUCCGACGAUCUAACUUUAGAGGAGGAUCUGAUGGAUAUGGCAGUGGACGUGGAUUUGGGGAUGGCUAUAAUGGGUAUGGAGGAGGACCUGGCGGUGGCAAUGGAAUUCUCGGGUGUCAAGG | -0.0676 |
| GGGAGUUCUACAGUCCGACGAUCUCCUGUGCUACACAUCGUAUGUACCGAAUCGGGGAAAAAGGGGUGGGGUUUUUUUGGGGAAAGUAUUAUGUUACGCCGUUCGGAUCUGCAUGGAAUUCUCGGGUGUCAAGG | -1.18 |
| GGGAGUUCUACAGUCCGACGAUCCACAGACAACACGCACCCACACAGCCACAGAGGGAAGGGGUUGGGAUGGGGACAGGGUGCACAGCAGGGCGGGGUAGGACCCCAGCCCCUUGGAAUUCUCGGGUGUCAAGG | -0.269 |
| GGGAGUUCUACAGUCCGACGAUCGUCCUGUGCUACACAUCGUAUGUACCGAAUCAAAUUUAAACCCCCAAACCCCCCCAAAAAAGUAUUAUGUUACGCCGUUCGGAUCUGCACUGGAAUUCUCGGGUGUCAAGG | 0.382 |
| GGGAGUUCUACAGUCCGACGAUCUAACUUUAGAGGAGGAUCUGAUGGAUAUGGCAGUGGACGUGGAUUUGGGGAUGGCUAUAAUGGGUAUGGAGGAGGACCUGGAGGUGGGAAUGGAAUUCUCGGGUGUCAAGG | 0.311 |
| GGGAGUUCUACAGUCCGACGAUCUCAAGUCCUGUGCUACACAUCGUAUGUACCGAAUCGGAAAGGGGAAAGGAAAGGGAAAGUAUUAUGUUACGCCGUUCGGAUCUGCACUUCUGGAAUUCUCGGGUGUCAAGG | -0.0407 |
| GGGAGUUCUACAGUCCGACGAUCCCUCAAGUCCUGUGCUACACAUCGUAUGUACCGAAUCGGGGUGGUGGGUGGGAAAGUAUUAUGUUACGCCGUUCGGAUCUGCACUUCCAGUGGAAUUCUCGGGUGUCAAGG | 0.042 |

Study 2
Target: Histone acetyltransferase KAT6A, both winged helices, GST fusion (KAT6A, Homo sapiens, UniProt Q92794, residues 1-181)
Technique: protein binding microarray
Form: double-stranded DNA, one strand shown
Sample: in vitro
Concentration: not given
Notes: 8-mer, flanks averaged, mean of 2 arrays, mostly near background
Baseline: not given
Direction: higher = stronger binding
Residues (chain): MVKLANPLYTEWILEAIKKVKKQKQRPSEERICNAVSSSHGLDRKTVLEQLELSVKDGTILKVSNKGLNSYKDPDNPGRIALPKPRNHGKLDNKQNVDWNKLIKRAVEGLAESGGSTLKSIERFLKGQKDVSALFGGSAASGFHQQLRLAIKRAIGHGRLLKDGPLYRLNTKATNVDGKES
| Sequence | E-score |
| --- | --- |
| CTTTGTGA | -0.0635 |
| CCAGCCCG | -0.0379 |
| GCGTACAA | 0.124 |
| CATCTGTA | 0.0478 |
| CTAGCGAA | -0.082 |
| GCGGGCCC | 0.248 |
| AATGCTAT | -0.0139 |
| AAATTTAG | -0.0639 |
| GGCTACCC | -0.0561 |
| AACGGGGC | 0.134 |
| AGTCCGCA | 0.216 |
| CACCGGAA | 0.119 |
| AATGGCAG | -0.167 |
| CTAGTCTC | -0.211 |
| AAAAGACA | 0.0106 |
| CCCGGTTC | 0.07 |
| CGCATTTA | 0.0776 |

Study 3
Target: RING finger protein unkempt homolog, zinc fingers 1-6, GST-SBP tag (UNK, Homo sapiens, UniProt Q9C0B0, residues 30-357)
Sequence of UniProt Q9C0B0 (30-357, looked up): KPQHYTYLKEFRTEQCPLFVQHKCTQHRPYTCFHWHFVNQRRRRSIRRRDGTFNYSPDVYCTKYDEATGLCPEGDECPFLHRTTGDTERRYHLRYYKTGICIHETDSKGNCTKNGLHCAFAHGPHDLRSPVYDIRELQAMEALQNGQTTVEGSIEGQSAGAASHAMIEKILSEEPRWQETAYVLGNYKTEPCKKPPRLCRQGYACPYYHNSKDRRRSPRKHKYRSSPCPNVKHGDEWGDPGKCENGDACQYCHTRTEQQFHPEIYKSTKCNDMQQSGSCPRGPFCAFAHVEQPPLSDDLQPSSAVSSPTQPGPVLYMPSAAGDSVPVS
Technique: RNA Bind-n-Seq
Form: RNA
Sample: in vitro
Concentration: not given
Notes: RNA with constant flanks, ends assumed
Baseline: input RNA pool
Direction: higher = stronger binding
| Sequence | bound/input enrichment |
| --- | --- |
| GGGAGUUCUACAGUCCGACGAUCGGCUUUGCGCUACUCUUCUACCUUGAACAGCUUCUUGGGGGACCAGAGGUGUUUCCCGGAUUCUUAAAGGCUUAUGUUAAGAAGUUUUCCUACCAAAGUGUAACGACUGAUGACUGGAAGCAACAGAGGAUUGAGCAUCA | 0.181 ratio |
| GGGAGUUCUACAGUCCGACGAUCUCUUCCUUUCCUUCUGUCUGUCUGACUCCUGGGUCUGUGCGCCAUGGCAUGAGUGUUUUCCCGCCGCCGACUGGAGUAGUAGACUGUUUCUAAGAACAGAUGAUCUGGUUCCUGAUGUGUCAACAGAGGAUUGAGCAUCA | 0.165 ratio |
| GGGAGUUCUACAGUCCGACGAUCUUCAACAGAAGAAAAGUAAUGGACUCCGAUGAAGACGACGCCGAUUACUAAGAGGACGCACUCCGACAGACUUCCGGAGCAGUGUCUAGGACAGUCACCACCUUGUAAAUGUUUACUUUGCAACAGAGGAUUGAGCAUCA | 0.11 ratio |
| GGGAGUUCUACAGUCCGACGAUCUCUACAUAUUUUGCCUGGUGCCCAGAUGGUGAGCAUAUCUUAACAGCCACAUGUGCUCCCCGGUUACGUGUUAAUAAUGGGUAUAAGAUCUGGCAUUAUACUGGCUCUCUUUUGCAUAAGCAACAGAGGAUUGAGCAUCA | 0.185 ratio |
| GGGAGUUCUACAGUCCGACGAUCGUGUUCGAGGAGAUGAACGUGGAUCUGCAGGAGGAGCUGCCAUCCCUGUGGAACAGCCGUGCCGGUUUCUAUGUCAACACGUUCCAGAGCAUCGCGGGUCUGGAGGAAAACUUCCAUAAACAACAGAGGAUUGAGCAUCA | 0.156 ratio |
| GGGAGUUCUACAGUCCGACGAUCACUUUUCCAGUAUUUUAGUGGACCCUGAAAUGUGUGUGAUGUGACAUUUGUUAUUUUCAUCCGCAAAAAAAAGAGUUGUAUGAUCUGUGCCUUUUUUAUAUCUUGGCAGGUAGGAAUAUUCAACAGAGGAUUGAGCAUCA | 0.324 ratio |
| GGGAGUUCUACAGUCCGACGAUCGCAGGGCAAGAGGAUUAUGACAGACUACGACCGCUAAGUUAUCCACAGACAGAUGUUUUUCCCGUAUGUUUCUCAGUGGUCUCUCCAUCCUCAUUUGAAAAUGUGAAAGAAAAGUGGGUGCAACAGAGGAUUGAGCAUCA | 0.27 ratio |
| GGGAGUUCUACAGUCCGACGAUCACUUUUGAUUUCUCAGAAGAGGAGGAUGAUGAUGCUGCUGCUGCUGAUGACAGUAAUGAUUCCGAAGAACUGAAAGUUAAAGCAUCUCCCAUAACAAAUGAUGGGGAAGAUGAAUUUGUUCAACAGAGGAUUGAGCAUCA | 0.346 ratio |

Study 4
Target: RNA binding protein fox-1 homolog 2, RRM domain, GST-SBP tag (RBFOX2, Homo sapiens, UniProt O43251-10, residues 100-194)
Technique: RNA Bind-n-Seq
Form: RNA
Sample: in vitro
Concentration: 365 nM
Notes: natural RNA segment, single round, ends assumed
Baseline: no-protein control
Direction: higher = stronger binding
Residues (chain): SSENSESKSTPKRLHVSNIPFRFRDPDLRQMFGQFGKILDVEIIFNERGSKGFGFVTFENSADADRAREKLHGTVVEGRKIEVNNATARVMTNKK
| Sequence | RBNS enrichment (R) |
| --- | --- |
| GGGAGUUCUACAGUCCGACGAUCCUCAAGCUCAAGGAACUCACCCCCAGAUAAGAAGCUGGUGCCUCUUGUCUCUCUCAUUUCAGAAACGGACUUUCUCAUCAUGCUUUCCUAUGGUGGGUAUGAGGGGCCAGUGGAAUUCUCGGGUGCCAA | 0.253 |
| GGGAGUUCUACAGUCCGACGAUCGAUGGACCAAAGCAGUGUCUUCUCAUGCGCUAACAUUGAUGAAUAUUGUUUCACACAAAAAUUAAAAGUUUCCUAAUUAAUGUUGUAUUCAUAUAUGUAGGCUCUGAAAUUGGAAUUCUCGGGUGCCAA | 0.449 |
| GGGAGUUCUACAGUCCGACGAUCUAUGUGCUUUGUCAUUUUCUUUGCUAAACAAAAGAGGCUAUGAAAGAACUAAAUAUGAGUACAUAAAAUUCUAUCUUUGAUAAAUUUUAUUUUUAUGCCCUACUUAAUAUUGGAAUUCUCGGGUGCCAA | 0.749 |
| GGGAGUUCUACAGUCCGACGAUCAGGGGUACAGUUACCCUCCCCCACGCCAUCCUUGUAGGACUCCAUGCUGCCAGUUUCUUUUUUGGUUCCUUUCUGCCCAGGACUGCAUGAGUUUCCCAGCCCCAAGUGGGUGGAAUUCUCGGGUGCCAA | 6.21 |
| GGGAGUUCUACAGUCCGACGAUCUUAUUCAGAAUUGUUUUGGUGAUACCUCACCCCUGUAAUCCCAGCACUUUGGGUGGGUGAGGCAGGCGGAUCACUUGAAGCCAGGACUUCAAGACCAGCUUGGCCAACAUUGGAAUUCUCGGGUGCCAA | 0.641 |
| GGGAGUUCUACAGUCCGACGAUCAAAGGAGCUGGUAGAAGCAGAGAGUGUAUUUCCCAUCUUGAAUGGGCCGGAGGUCUCGAAGCCUCAGCUUUUACUUUGUGAGCUGCAACACUCGCUUCAGCUCAGACUCAUGGAAUUCUCGGGUGCCAA | 0.254 |
| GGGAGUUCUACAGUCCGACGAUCGCCUGCCUUUCUUGAUGUCCAAUGAUGGGGCCUGGAAUGUAUGAGCUAGCAAGGCUUCUUCAGCUUAUUGACCAGCCAGGGUUUCUUCUUGCCUACUCCGGUGCCUCUACUGGAAUUCUCGGGUGCCAA | 2.09 |
| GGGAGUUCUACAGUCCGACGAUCAAAAAAAGCAGCCUUUUAGGGCUAGAGUAUUUUAUAUAAACAGAAGAGCUAAGUUCCUGAAGACUAAGCUAGAUAGCUGCAGCUAUAUGUAAAUUGUAUAUUUUUAUGAAUGGAAUUCUCGGGUGCCAA | 0.812 |
| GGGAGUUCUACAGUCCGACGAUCUCACUUUAAAGACUUGUGCUAUUUGGAAGCAAAGCUAUUUUUUUUGUCAGUGGAAUGCAGUUUUUUUACUAUUCCAUCAUGAGGAACAACAUAGAUUCCAUGAUCUUUUUUGGAAUUCUCGGGUGCCAA | 0.767 |

Some of these lines once more (study 1):
| Sequence | log2 enrichment |
| --- | --- |
| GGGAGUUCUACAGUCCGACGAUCCCUCAAGUCCUGUGCUACACAUCGUAUGUACCGAAUCGGGGCGGCGGGCGGGGAAAGUAUUAUGUUACGCCGUUCGGAUCUGCACUUCCAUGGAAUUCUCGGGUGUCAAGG | -0.264 |
| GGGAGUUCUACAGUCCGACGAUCUAACUUUAGAGGAGGAUCUGAUGGAUAUGGCAGUGGACGUGGAUUUGGGGAUGGCUAUAAUGGGUAUGGAGGAGGACCUGGAGGUGGGAAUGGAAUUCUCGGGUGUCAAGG | 0.311 |
| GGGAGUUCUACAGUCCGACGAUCGUCCUGUGCUACACAUCGUAUGUACCGAAUCAAAUUUAAACCCCCAAACCCCCCCAAAAAAGUAUUAUGUUACGCCGUUCGGAUCUGCACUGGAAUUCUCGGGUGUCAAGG | 0.382 |
| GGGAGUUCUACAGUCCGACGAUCACCAUGCAGGUAGGCAUCUUUGGGAAGUGGGGCAAGGGGGGGAUAGGGAGGGGGGUAACACUUUGGGAACAGGUGGUCCCAGGUCGUUUCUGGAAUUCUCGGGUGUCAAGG | 0.016 |
| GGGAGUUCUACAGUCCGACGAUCUAACUUUAGAGGAGGAUCUGAUGGAUAUGGCAGUGGACGUGGAUUUGGGGAUGGCUAUAAUGGGUAUGGAGGAGGACCUGGCGGUGGCAAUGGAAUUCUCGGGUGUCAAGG | -0.0676 |
| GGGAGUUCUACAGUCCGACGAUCCUGUGCUACACAUCGUAUGUACCGAAUCGGGGUUUUUUUGGGGAAAGGGGUUUUUUUGGGGAAAGUAUUAUGUUACGCCGUUCGGAUCUGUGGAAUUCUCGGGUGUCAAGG | -0.211 |
